# Results of several laboratories.
# Each line is one published result; not all experiments were run side by side. Numbers after ± are the reported error.
# Organism: Staphylococcus aureus
Structure (SMILES),test,system,setting,how to read,measurement,value
CC[P+](CC)(CC)[Au-][S+](C[C@H]1O[C@H](O[C@H]2O[C@H](COC(C)=O)[C@@H](OC(C)=O)[C@H](OC(C)=O)[C@H]2OC(C)=O)[C@H](OC(C)=O)[C@@H](OC(C)=O)[C@@H]1OC(C)=O)[Au-][P+](CC)(CC)CC.[Cl-],broth microdilution,JE2 USA300,,,MBC,0.006 µM
O=[N+]([O-])c1ccc2c(c1)C=[N+]1N3C(=[O+][Cu-2]1([Cl])[O]2)c1ccccc1NC3c1cc([N+](=O)[O-])ccc1O (stereo not drawn),"mature biofilm, MTT",ATCC 29213,0.5 × MIC,,reduction of biofilm viability,66.4 ± 10.6%
CNC(CC(C)C)C(=O)NC1C(=O)NC(CC(N)=O)C(=O)NC2C(=O)NC3C(=O)NC(C(=O)NC(C(=O)O)c4cc(O)cc(O)c4-c4cc3ccc4O)C(O)c3ccc(c(Cl)c3)Oc3cc2cc(c3OC2OC(CO)C(O)C(O)C2OC2CC(C)(NC(=O)CCCCCCCC[n+]3ccccc3)C(O)C(C)O2)Oc2ccc(cc2Cl)C1O (stereo not drawn),agar dilution,MRSA4,,"reference: vancomycin, higher = more active",MIC fold improvement,4 fold
CCCCCCCCCCCCCC(=O)N[C@H]1C(=O)N[C@@H](CN)C(=O)N[C@@H](CO)C(=O)N[C@@H](Cc2ccc(O)cc2)C(=O)O[C@H]1C,,SH1000,"concentration not given, 18 h, 30 °C, together with: other lipids or menaquinone-4",,antibacterial activity,no effect
O=C(CCc1cc(O)c(O)c(O)c1)NCCCCCCCCCC[P+](c1ccccc1)(c1ccccc1)c1ccccc1,,XU212,"MIC, 1 h",,K+ release,2.13 ± 0.17 µg/mL
CN[C@H](CC(C)C)C(=O)N[C@H]1C(=O)N[C@@H](CC(N)=O)C(=O)N[C@H]2C(=O)N[C@H]3C(=O)N[C@H](C(=O)N[C@H](C(=O)O)c4cc(O)cc(O)c4-c4cc3ccc4O)[C@H](O)c3ccc(c(Cl)c3)Oc3cc2cc(c3O[C@@H]2O[C@H](CO)[C@@H](O)[C@H](O)[C@H]2O[C@H]2C[C@](C)(NCc3ccc(C(=O)OCCCCCCN(Cc4ccccn4)Cc4ccccn4)cc3)[C@H](O)[C@H](C)O2)Oc2ccc(cc2Cl)[C@H]1O,,"ATCC 33591 MRSA, neutropenic mouse thigh infection, thigh tissue","ip, 12 mg/kg twice 12 h apart, 24 h post-infection",,bacterial load,4.4 log CFU/g
N=C(N)NCCC[C@@H]1NC(=O)[C@H](CCCNC(=N)N)NC(=O)[C@H](CCCNC(=N)N)NC(=O)[C@H](Cc2ccc3ccccc3c2)NC(=O)[C@H](Cc2c[nH]c3ccccc23)NC(=O)[C@H](Cc2ccc3ccccc3c2)NC(=O)[C@H](CCCNC(=N)N)NC1=O,bacterial killing,MRSA ATCC BAA-1556,4 x MIC,,time to kill,1 to 2 h
[Cl-].[Cl-].[Ru+2].c1ccc2nc3c4cccnc4c4ncccc4c3nc2c1.c1ccncc1.c1ccncc1.c1ccncc1.c1ccncc1,,,LED irradiation 470 nm,,MIC90,8 µM
COc1cccc(C2Nc3ccccc3C3=[O+][Cu-2]4([Cl])[O]c5c(cccc5OC)C=[N+]4N32)c1O (stereo not drawn),"respiratory activity, inhibitor, MTT",ATCC 29213,concentration not given,at least 70% inhibition,lowest effective concentration,0.25 × MIC
CNC(CC(C)C)C(=O)NC1C(=O)NC(CC(N)=O)C(=O)NC2C(=O)NC3C(=O)NC(C(=O)NC(C(=O)O)c4cc(O)cc(O)c4-c4cc3ccc4O)C(O)c3ccc(c(Cl)c3)Oc3cc2cc(c3OC2OC(CO)C(O)C(O)C2OC2CC(C)(NC(=O)CCCCCC[N+](C)(C)C)C(O)C(C)O2)Oc2ccc(cc2Cl)C1O (stereo not drawn),agar dilution,MRSA5,,"reference: vancomycin, higher = more active",MIC fold improvement,8 fold
CCc1cccc(NC(=O)CSc2nc3ccccc3c(=O)n2-c2ccc(S(N)(=O)=O)cc2)c1,"microbial growth, well diffusion",ATCC29213,"500 µg/mL, 24 h",,inhibition zone,12 mm
CC(C)C[C@H](NC(=O)[C@H](CC(N)=O)NC(=O)[C@H](CCCNC(=N)N)NC(=O)[C@@H](CC(C)C)NC(=O)[C@H](Cc1ccc(-c2ccccc2)cc1)NC(=O)[C@H](CC(=O)O)NC(=O)[C@H](CCCCN)NC(=O)[C@@H](CC(C)C)NC(=O)[C@H](CCCNC(=N)N)NC(=O)[C@H](CCC(N)=O)NC(=O)[C@@H](NC(=O)[C@@H](CC(C)C)NC(=O)[C@H](CCCNC(=N)N)NC(=O)[C@H](CCCCN)NC(=O)[C@H](Cc1ccc(-c2ccccc2)cc1)NC(=O)CN)C(C)C)C(=O)N[C@H](C(N)=O)C(C)C,"preformed biofilm disruption, XTT",USA300 LAC,"16 µM, 24 h, 100% MHB",,remaining viable bacteria,~30%
C=CS(=O)(=O)NCCCCCCCCCCOCc1cn(CCCCCCCCCCNS(=O)(=O)C=C)n[n+]1C,"microbial growth, absorbance",,24 h,,IC50,8.3 µM
CCCCCCCCCC1CC2CCC3CC(CCCCCCCCC)NC(=N1)N23 (stereo not drawn),bacterial growth,ATCC 29213,,,IC50,3.02 µM
CCCCCCCCCCCCCCCCC(=O)N[C@@H](CCCCN)C(=O)N[C@@H](CCCCN)C(=O)N[C@@H](CCCCN)C(=O)N[C@@H](CCCCN)C(=O)N[C@@H](CCCCN)C(N)=O,,"MRSA JE2, Galleria mellonella larvae","50 mg/kg, 4 d",,survival,~80%
Oc1c(Br)cc(Br)c2nc3cc(F)ccc3nc12,Calgary biofilm device,"MRSA ATCC BAA-44, biofilm-released planktonic cells","24 h, 37 °C",,MBC,50 µM
CC[C@H](C)[C@H](N)C(=O)N[C@@H](CC(C)C)C(=O)N1CCC[C@H]1C(=O)N[C@@H](Cc1c[nH]c2ccccc12)C(=O)N[C@@H](CCCCN)C(=O)N[C@@H](Cc1c[nH]c2ccccc12)C(=O)N1CCC[C@H]1C(=O)N[C@@H](Cc1c[nH]c2ccccc12)C(=O)N[C@@H](Cc1c[nH]c2ccccc12)C(=O)N1CCC[C@H]1C(=O)N[C@@H](Cc1c[nH]c2ccccc12)C(=O)N[C@@H](CCCNC(=N)N)C(=O)N[C@@H](CCCNC(=N)N)C(N)=O,time-kill,"Mueller-Hinton broth, 10% FBS","4 x MIC, 3 h, 37 °C",,log reduction viability,3 log
CCCCCCCCCCCCCC(=O)N[C@@H](CCCNC(=N)N)C(=O)N[C@@H](CCCNC(=N)N)C(=O)N[C@@H](CCCNC(=N)N)C(N)=O,membrane permeabilisation,USA300,"12.5 µM, together with: 6.25 µM FITC",,time to FITC dye entry,150 s
CC(C)=CCc1cc2c(cc1O)OCc1c-2oc2c(CC=C(C)C)c(O)ccc12,,ATCC 25923,concentration not given,,antibacterial activity,inactive
Cn1c(C23CC4CC(CC(C4)C2)C3)nn(CCN2CCCC2)c1=S,,IFO 3060,"200 µg/disc, 24 h, 37 °C",,inhibition zone diameter,22 mm
CC(C)C[C@H](NC(=O)[C@H](CC(N)=O)NC(=O)[C@H](CCCNC(=N)N)NC(=O)[C@@H](CC(C)C)NC(=O)[C@H](Cc1ccc(-c2ccccc2)cc1)NC(=O)[C@H](CC(=O)O)NC(=O)[C@H](CCCCN)NC(=O)[C@@H](CC(C)C)NC(=O)[C@H](CCCNC(=N)N)NC(=O)[C@H](CCC(N)=O)NC(=O)[C@@H](NC(=O)[C@@H](CC(C)C)NC(=O)[C@H](CCCNC(=N)N)NC(=O)[C@H](CCCCN)NC(=O)[C@H](Cc1ccc(-c2ccccc2)cc1)NC(=O)CN)C(C)C)C(=O)N[C@H](C(N)=O)C(C)C,,"USA300 LAC, Galleria mellonella larvae","64 mg/kg, day 5, dosed 2 h before infection",,survival,83%
CC(C)C[C@H](NC(=O)[C@H](CC(N)=O)NC(=O)[C@H](CCCNC(=N)N)NC(=O)[C@@H](CC(C)C)NC(=O)[C@H](Cc1ccc(-c2ccccc2)cc1)NC(=O)[C@H](CC(=O)O)NC(=O)[C@H](CCCCN)NC(=O)[C@@H](CC(C)C)NC(=O)[C@H](CCCN)NC(=O)[C@H](CCC(N)=O)NC(=O)[C@@H](NC(=O)[C@@H](CC(C)C)NC(=O)[C@H](CCCNC(=N)N)NC(=O)[C@H](CCCCN)NC(=O)[C@H](Cc1ccc(-c2ccccc2)cc1)NC(=O)CN)C(C)C)C(=O)N[C@H](C(N)=O)C(C)C,XTT,USA300,"24 h, 24 h preformed biofilm",,biofilm disruption concentration,12.5 µM
Oc1c(Br)cc(Br)c2nc3ccccc3nc12,Calgary Biofilm Device,MRSA 1707,biofilm,,MBC,25 µM
CCc1ccccc1NC(=O)CSc1nc2ccccc2c(=O)n1-c1ccc(S(N)(=O)=O)cc1,"microbial growth, well diffusion",ATCC29213,"500 µg/mL, 24 h",,inhibition zone,18 mm
CC[C@H](C)[C@H](NC(=O)[C@H](CCCCN)NC(=O)[C@H](CC(N)=O)NC(=O)[C@H](Cc1c[nH]c2ccccc12)NC(=O)[C@H](Cc1ccccc1)NC(=O)[C@H](CCCCN)NC(=O)[C@H](CCCCNC(=N)N)NC(=O)[C@H](CC(C)C)NC(=O)[C@H](Cc1c[nH]c2ccccc12)NC(=O)[C@H](CCCCN)NC(=O)[C@H](CCCCNC(=N)N)NC(=O)[C@H](CC(C)C)NC(=O)CNC(C)=O)C(=O)N[C@@H](CCCCN)C(=O)N[C@@H](CCCCNC(=N)N)C(N)=O,,,"12 h, together with: plasma pretreatment",reference: MIC without plasma pretreatment,MIC fold increase,2 fold
Cc1cc(O)c2c(c1)C(=O)c1cc3oc(=O)cc(C)c3c(O)c1C2=O,,MTCC 96,100 µg/disc,,zone of inhibition,< 8 mm
O=C(O)CN1C(=O)/C(=C/c2ccc(-c3ccc(N(c4ccccc4)c4ccccc4)cc3)cc2)NC1=S,broth microdilution,ATCC 43300,,,MBC/MIC ratio,2
COc1ccc(NC(=O)CSc2nc3ccccc3c(=O)n2-c2ccc(S(N)(=O)=O)cc2)cc1,"microbial growth, well diffusion",ATCC29213,"500 µg/mL, 24 h",,inhibition zone,24 mm
CC(=O)[O-].O.O.O.O.[Ni+2].[O-]c1ccc(Br)cc1C=NCCN1CCOCC1,,,20 µL of 100 µM per disc,,inhibition zone diameter,22 mm
CN1/C(=C/C=C/c2cc(-c3ccccc3)cc(-c3ccccc3)[o+]2)C(C)(C)c2ccccc21,lipid synthesis,NCTC 8325,together with: reserpine 20 µg/mL,,IC50,0.62 µg/mL
N[C@@H](Cc1cnc(C23CC4CC(CC(C4)C2)C3)[nH]1)C(=O)N[C@@H](Cc1c[nH]c2ccccc12)C(=O)N[C@@H](Cc1cnc(C23CC4CC(CC(C4)C2)C3)[nH]1)C(=O)NCc1ccccc1,,,,,IC50,3.45 to 4.94 µg/mL
CN(C)c1cc(CNC2CCCC2)c(O)c2c1C[C@H]1C[C@H]3[C@H](N(C)C)C(O)=C(C(N)=O)C(=O)[C@@]3(O)C(O)=C1C2=O,,"MRSA 5 tetM, mouse thigh infection model","sc, 20 mg/kg, 24 h",reference: untreated control,log10 CFU reduction,2.49 to 3.11 log10
CC(=NNC(=N)N)c1nnn(-c2ccc(C#CC3(O)CCCCC3)cc2)c1C,,USA300 MRSA,4 × MIC,,biofilm disruption,~37%

# Repeated from above:
Structure (SMILES),test,system,setting,how to read,measurement,value
CCc1cccc(NC(=O)CSc2nc3ccccc3c(=O)n2-c2ccc(S(N)(=O)=O)cc2)c1,"microbial growth, well diffusion",ATCC29213,"500 µg/mL, 24 h",,inhibition zone,12 mm
CC(C)C[C@H](NC(=O)[C@H](CC(N)=O)NC(=O)[C@H](CCCNC(=N)N)NC(=O)[C@@H](CC(C)C)NC(=O)[C@H](Cc1ccc(-c2ccccc2)cc1)NC(=O)[C@H](CC(=O)O)NC(=O)[C@H](CCCCN)NC(=O)[C@@H](CC(C)C)NC(=O)[C@H](CCCNC(=N)N)NC(=O)[C@H](CCC(N)=O)NC(=O)[C@@H](NC(=O)[C@@H](CC(C)C)NC(=O)[C@H](CCCNC(=N)N)NC(=O)[C@H](CCCCN)NC(=O)[C@H](Cc1ccc(-c2ccccc2)cc1)NC(=O)CN)C(C)C)C(=O)N[C@H](C(N)=O)C(C)C,"preformed biofilm disruption, XTT",USA300 LAC,"16 µM, 24 h, 100% MHB",,remaining viable bacteria,~30%
C=CS(=O)(=O)NCCCCCCCCCCOCc1cn(CCCCCCCCCCNS(=O)(=O)C=C)n[n+]1C,"microbial growth, absorbance",,24 h,,IC50,8.3 µM
CCCCCCCCCC1CC2CCC3CC(CCCCCCCCC)NC(=N1)N23 (stereo not drawn),bacterial growth,ATCC 29213,,,IC50,3.02 µM
